Measured values gathered from unrelated publications.
Lines come from different studies, so protocols differ. Values joined by “and” are separate records of one study, mostly repeats; a detail may differ. ± gives the spread as reported. ≈ marks a conversion by molar mass, not a printed value.

SMILES | organism | test | test system | setting | how to read | quantity | result
COc1ccc(C2=[N+]([O-])c3ccccc3N3CCCN=C23)cc1 | Bacteroides fragilis | – | – | – | – | MIC90 | 2 µg/mL
CCC1(CC)CC(=O)N(C2c3cc(C(=O)NC4c5ccccc5CC4O)ccc3OC2(C)COC)C(=N)N1 (centres unmarked) | Plasmodium falciparum | parasite growth | W2Mef | – | – | EC50 | 0.0004 ± 0.0002 µM
COC(=O)C1=CO[C@@H](C)[C@@H]2Cn3ccc4c5ccccc5nc-4c3C[C@H]12 | Plasmodium falciparum | growth, [3H]-hypoxanthine uptake | Dd2 | 96 h | reference: Dd2 IC50 over 3D7 IC50 | resistance index | 1.7
CC(C)[C@H]1NC(=O)[C@H](Cc2ccccc2)NC(=O)[C@@H](C(C)C)NC(=O)[C@@H](C)NC(=O)[C@H](CO)NC(=O)[C@@H](Cc2c(-c3ccc(-c4ccccc4)c(F)c3)[nH]c3ccccc23)NC(=O)[C@@H](CO)NC1=O | Vibrio vulnificus | broth dilution | – | – | – | MIC90 | > 50 µM
FC(F)(F)c1cccc(CNc2nc(NC3CCN(Cc4ccccc4)CC3)c3nc[nH]c3n2)c1 | Cryptococcus neoformans | RNA-seq, refers to: CNAG_05384 | – | 48 µg/mL, 3 h | reference: untreated | mRNA fold change | 1.01
O=C(CCN(CCC(=O)N[C@@H](Cc1c[nH]c2ccccc12)C(=O)O)C(=O)CCN(CCC(=O)N(CCC(=O)N[C@@H](Cc1c[nH]c2ccccc12)C(=O)O)CCC(=O)N[C@@H](Cc1c[nH]c2ccccc12)C(=O)O)C(=O)CCC(CCC(=O)N(CCC(=O)N(CCC(=O)N[C@@H](Cc1c[nH]c2ccccc12)C(=O)O)CCC(=O)N[C@@H](Cc1c[nH]c2ccccc12)C(=O)O)CCC(=O)N(CCC(=O)N[C@@H](Cc1c[nH]c2ccccc12)C(=O)O)CCC(=O)N[C@@H](Cc1c[nH]c2ccccc12)C(=O)O)(CCC(=O)N(CCC(=O)N(CCC(=O)N[C@@H](Cc1c[nH]c2ccccc12)C(=O)O)CCC(=O)N[C@@H](Cc1c[nH]c2ccccc12)C(=O)O)CCC(=O)N(CCC(=O)N[C@@H](Cc1c[nH]c2ccccc12)C(=O)O)CCC(=O)N[C@@H](Cc1c[nH]c2ccccc12)C(=O)O)[N+](=O)[O-])N[C@@H](Cc1c[nH]c2ccccc12)C(=O)O | human adenovirus 2 | viral replication | HEL cells | – | – | EC50 | 20 ± 0.05 µM
OB(O)c1ccc(C(F)(F)F)s1 | Staphylococcus aureus | crystal violet | USA300 wild type | 5 µM | reference: wild type untreated | biofilm formation | 48.5% and 38.4% and 40.9%
CN(C)S(=O)(=O)c1ccc(S(=O)(=O)N2CCC(n3c(=O)[nH]c4ccccc43)CC2)cc1 | Escherichia coli | – | Keio wild type | concentration not given, 96 h | – | rifampicin concentration | 250 µg/mL
C[N+]1=C2C(c3ccc([N+](=O)[O-])cc3)=[N+]([O-])c3ccccc3N2CCC1 | Bacteroides fragilis | – | – | – | – | MIC90 | 1 µg/mL
CC(C)[C@H]1NC(=O)[C@H](Cc2ccccc2)NC(=O)[C@@H](C(C)C)NC(=O)[C@@H](C)NC(=O)[C@H](C)NC(=O)[C@@H](Cc2c(-c3ccc(-c4ccc5ccccc5c4)cc3)[nH]c3ccccc23)NC(=O)[C@@H](C)NC1=O | Vibrio vulnificus | broth dilution | – | – | – | MIC90 | > 50 µM
CC[C@H](C)CCCCC(=O)N[C@@H](CCN)C(=O)N[C@H](C(=O)N[C@@H](CCN)C(=O)N[C@H]1CCNC(=O)[C@H]([C@@H](C)O)NC(=O)[C@H](CCN)NC(=O)[C@H](CCN)NC(=O)[C@H](CC(C)C)NC(=O)[C@@H](CC(C)C)NC(=O)[C@H](CCN)NC1=O)[C@@H](C)O | Escherichia coli | daily serial passaging | ATCC 8739 | highest sub-MIC, 14 days | reference: initial MIC | MIC fold change | 1.68
CCN(CC)CCO.O=C(O)C(Cl)Cl | Amaranthus retroflexus | herbicidal activity | – | 15 mg/mL, 21 days, pre-emergence greenhouse | – | inhibition | 0%
Cc1cc(Cl)cc(S(C)=NC#N)c1NC(=O)c1cc(Br)nn1-c1ncccc1Cl (centres unmarked) | Spodoptera litura | leaf-dip | third instar larvae | 12.5 ppm, 48 h | – | mortality | 50%
CCOC(=O)C1(CC#N)Oc2cc(F)ccc2N(CC#N)C1=O (centres unmarked) | Amaranthus retroflexus | fresh weight, greenhouse postemergence | – | postemergence, 150 g ai/ha, 21 days | – | inhibition | 59.9 ± 3.64%
CC(C)CCCCCCCCC/C=C/C(=O)N[C@@H](CC(=O)O)C(=O)N[C@H]1CNC(=O)[C@@H]2CCCN2C(=O)[C@H](C(C)C)NC(=O)[C@@H](CN)NC(=O)CNC(=O)[C@H](CC(=O)O)NC(=O)CNC(=O)[C@H](CC(=O)O)NC(=O)[C@H](CC(=O)O)NC(=O)[C@H]2CCCCN2C1=O | Staphylococcus aureus | broth microdilution | BR-VRSA strain 880, Mueller-Hinton broth, Mg2+ 10 mg/L | 16 h, with: Ca2+ 1.0 mM | – | MIC | 8 µg/mL (≈ 6.27 µM)
[O-][N+]1=C(c2ccccc2)C2=NCCN2c2ccccc21 | Bacteroides fragilis | microbial growth | – | – | – | MIC50 | ≤ 0.06 µg/mL
CCOC(=O)C1(Cc2cc(F)c(F)c(F)c2)Oc2cc(F)ccc2N(Cc2cc(F)c(F)c(F)c2)C1=O (centres unmarked) | Amaranthus retroflexus | fresh weight, greenhouse postemergence | – | postemergence, 150 g ai/ha, 21 days | – | inhibition | 68.5 ± 4.28%
C[N+]1=C2C(c3ccccc3)=[N+]([O-])c3ccccc3N2CCC1 | Bacteroides fragilis | microbial growth | – | – | – | MIC50 | 2 µg/mL
C#CCN1C(=O)C(CC#C)(C(=O)OCC)Oc2ccccc21 (centres unmarked) | Amaranthus retroflexus | – | greenhouse | postemergence, 150 g ai/ha, 21 days | – | fresh weight inhibition | > 75%
COc1ccc(Cn2c3cc(=O)n(Cc4cccc(Cl)n4)c(C)c3c(=O)n2-c2ccccn2)cc1 | human respiratory syncytial virus | – | recombinant reporter virus | concentration not given, scale 0 to 100, with: cytidine 0.13 µM | – | normalized viral replication | 0
CCOC(=O)C1(Cc2cc(OC)cc(OC)c2)Oc2cc(F)ccc2N(Cc2cc(OC)cc(OC)c2)C1=O (centres unmarked) | Amaranthus retroflexus | fresh weight, greenhouse postemergence | – | postemergence, 150 g ai/ha, 21 days | – | inhibition | 59.6 ± 3.14%
CC(C)[C@H]1NC(=O)[C@H](Cc2ccccc2)NC(=O)[C@@H](C(C)C)NC(=O)[C@@H](C)NC(=O)[C@H](CO)NC(=O)[C@@H](Cc2c(-c3ccc(-c4cccc5ccccc45)cc3)[nH]c3ccccc23)NC(=O)[C@@H](CO)NC1=O | Vibrio vulnificus | broth dilution | – | – | – | MIC90 | > 50 µM
CC(C)C[C@H](NC(=O)[C@@H](N)CO)C(=O)N[C@@H](Cc1c[nH]c2ccccc12)C(=O)N[C@@H](CCC(=O)O)C(=O)N[C@@H](CC(N)=O)C(=O)N[C@@H](Cc1ccccc1)C(=O)N[C@@H](CCCCN)C(=O)N[C@@H](CC(N)=O)C(=O)N[C@@H](C)C(=O)NCC(=O)N[C@@H](CCCCN)C(=O)N[C@@H](CCCCN)C(N)=O | all tested microorganisms | – | – | – | – | geometric mean MIC | 256 µM
O=CCNCCOn1c(=O)n(OCCNCCO)c(=O)n(OCCNCCOn2c(=O)n(OCCNCCO)c(=O)n(OCCNCCO)c2=O)c1=O | Aspergillus fumigatus | broth microdilution | – | – | – | MLC | 16 ± 2 µg/mL (≈ 20.8 µM)
CCc1cc(CCC(=O)O)nc(-c2nc(=O)c3ccc(F)cc3s2)c1 | Acinetobacter baumannii | growth inhibition | AR Bank 0288, XDR | 5% CO2 | – | EC50 | > 100 µM
CN(C(=O)c1ccn2ncc(-c3ccc(C(N)=O)cc3)c2c1)c1ccc(C#N)cn1 | Cryptosporidium parvum | – | UGA1 Nluc, IFN-gamma knockout C57BL/6 mice, faeces | oral, 10 mg/kg daily, 144 h post infection, treatment days 3-9 | higher means more parasites | faecal Nluc luminescence | 14 a.u. and 30 a.u. and 38 a.u. and 179 a.u. and 101 a.u.
Cc1cc(C(=O)Nc2nc3cccc(C)c3n2[C@H]2CCCCN(C(=O)/C=C/CN(C)C)C2)ccn1 | Trypanosoma brucei | propidium iodide flow cytometry, refers to: G1 phase | bloodstream parental line | concentration not given | – | cell cycle distribution | 16.2% and 10.5% and 10%
CCc1nn(C)c2nc(-c3ccc(C(=O)O)cc3)nc(NCc3ccccc3)c12 | Cryptosporidium parvum | – | HCT-8 | EC90, 24 h | reference: DMSO control | parasite number | 69.2% and 48.8% and 46% and 38.9%
CCCCCCCCC=CCCCCCCCCNC(=O)C(N)Cc1ccc(OP(=O)(O)COC(CO)Cn2ccc(N)nc2=O)cc1 (centres unmarked) | varicella-zoster virus | – | HFF, Ellen | – | reference: CC50 over EC50 | selectivity index | 50
